Results of several laboratories.
Lines come from different studies, so protocols differ.
mcmA: mcmA (Methylobacterium extorquens, UniProt C5AV67)
T1: Ffh/4.5S SRP RNA (Escherichia coli); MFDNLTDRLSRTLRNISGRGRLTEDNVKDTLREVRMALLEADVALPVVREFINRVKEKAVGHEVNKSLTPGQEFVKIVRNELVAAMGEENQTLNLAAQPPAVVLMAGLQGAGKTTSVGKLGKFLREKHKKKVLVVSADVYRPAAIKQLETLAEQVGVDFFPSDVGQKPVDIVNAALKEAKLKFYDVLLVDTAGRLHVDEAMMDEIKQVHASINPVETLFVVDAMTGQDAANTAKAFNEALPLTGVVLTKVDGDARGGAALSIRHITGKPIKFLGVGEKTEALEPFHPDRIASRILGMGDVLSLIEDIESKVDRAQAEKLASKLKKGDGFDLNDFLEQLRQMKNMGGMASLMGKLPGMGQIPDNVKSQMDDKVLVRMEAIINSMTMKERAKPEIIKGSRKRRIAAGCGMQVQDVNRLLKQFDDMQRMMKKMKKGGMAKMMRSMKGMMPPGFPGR
B1: ftsY 47-497 E475K (Escherichia coli, UniProt P10121); chain ASEQAVEEQPQAHTEAEAETFAADVVEVTEQVAESEKAQPEAEVVAQPEPVVEETPEPVAIEREELPLPEDVNAEAVSPEEWQAEAETVEIVEAAEEEAAKEEITDEELETALAAEAAEEAVMVVPPAEEEQPVEEIAQEQEKPTKEGFFARLKRSLLKTKENLGSGFISLFRGKKIDDDLFEELEEQLLIADVGVETTRKIITNLTEGASRKQLRDAEALYGLLKEEMGEILAKVDEPLNVEGKAPFVILMVGVNGVGKTTTIGKLARQFEQQGKSVMLAAGDTFRAAAVEQLQVWGQRNNIPVIAQHTGADSASVIFDAIQAAKARNIDVLIADTAGRLQNKSHLMEELKKIVRVMKKLDVEAPHEVMLTIDASTGQNAVSQAKLFHEAVGLTGITLTKLDGTAKGGVIFSVADQFGIPIRYIGVGKRIEDLRPFKADDFIEALFARED
B2: fliP mature (Salmonella enterica, UniProt P54700); sequence looked up; chain QLPGLISQPLAGGGQSWSLSVQTLVFITSLTFLPAILLMMTSFTRIIIVFGLLRNALGTPSAPPNQVLLGLALFLTFFIMSPVIDKIYVDAYQPFSEQKISMQEALDKGAQPLRAFMLRQTREADLALFARLANSGPLQGPEAVPMRILLPAYVTSELKTAFQIGFTIFIPFLIIDLVIASVLMALGMMMVPPATIALPFKLMLFVLVDGWQLLMGSLAQSFYS
B3: CCNO (Homo sapiens, UniProt P22674); chain MVTPCPTSPSSPAARAGRRDNDQNLRAPVKKSRRPRLRRKQPLHPLNPCPLPGDSGICDLFESPSSGSDGAESPSAARGGSPLPGPAQPVAQLDLQTFRDYGQSCYAFRKAQESHFHPREALARQPQVTAESRCKLLSWLIPVHRQFGLSFESLCLTVNTLDRFLTTTPVAADCFQLLGVTSLLIACKQVEVHPPRVKQLLALCCGAFSRQQLCNLECIVLHKLHFTLGAPTISFFLEHFTHARVEAGQAEASEALEAQALARGVAELSLADYAFTSYSPSLLAICCLALADRMLRVSRPVDLRLGDHPEAALEDCMGKLQLLVAINSTSLTHMLPVQICEKCSLPPSSK
B4: hda (Escherichia coli, UniProt P69931); chain MNTPAQLSLPLYLPDDETFASFWPGDNSSLLAALQNVLRQEHSGYIYLWAREGAGRSHLLHAACAELSQRGDAVGYVPLDKRTWFVPEVLDGMEHLSLVCIDNIECIAGDELWEMAIFDLYNRILESGKTRLLITGDRPPRQLNLGLPDLASRLDWGQIYKLQPLSDEDKLQALQLRARLRGFELPEDVGRFLLKRLDREMRTLFMTLDQLDRASITAQRKLTIPFVKEILKL
B5: bfd 1-73 C43S (Pseudomonas aeruginosa, UniProt Q9HY80); chain MYVCLCQGVTDNQIRDAIYEGCCSYREVREATGVGTQCGKCASLAKQVVRETLNDLQSAQPVPAFGTTAFVAA
B6: protein 1-329 (Methylobacterium extorquens, UniProt C5AP93); chain MSATLPDMDTLRERLLAGDRAALARAITLAESRRADHRAAVRDLIDAVLPQTGRAIRVGITGVPGVGKSTTIDALGSLLTAAGHKVAVLAVDPSSTRTGGSILGDKTRMARLAIDRNAFIRPSPSSGTLGGVAAKTRETMLLCEAAGFDVILVETVGVGQSETAVADLTDFFLVLMLPGAGDELQGIKKGILELADMIAVNKADDGDGERRASAAASEYRAALHILTPPSATWTPPVVTISGLHGKGLDSLWSRIEDHRSKLTATGEIAGKRREQDVKWMWALVHERLHQRLVGSAEVRQATAEAERAVAGGEHSPAAGADAIATLIGL
B7: FBLN5 247-333 (Homo sapiens, UniProt Q9UBX5); chain DMDECSFSEFLCQHECVNQPGTYFCSCPPGYILLDDNRSCQDINECEHRNHTCNLQQTCYNLQGGFKCIDPIRCEEPYLRISDNRCM
B8: bfd 1-73 K40A/C43S (Pseudomonas aeruginosa, UniProt Q9HY80); chain MYVCLCQGVTDNQIRDAIYEGCCSYREVREATGVGTQCGACASLAKQVVRETLNDLQSAQPVPAFGTTAFVAA
B9: rnj HA-tagged (Mycolicibacterium smegmatis, UniProt A0QVT2); chain MSAELAPPPPLAPGGLRVTALGGISEIGRNMTVFEHLGRLLIVDCGVLFPGHDEPGVDLILPDLRHIEDRLDEIEALVVTHAHEDHIGAIPFLLKLRPDIPVVGSKFTIALVREKCREHRLKPKFVEVAERQSSQHGVFECEYFAVNHSIPGCLAVAIHTGAGTVLHTGDIKLDQLPLDGRPTDLPGMSRLGDAGVDLFLCDSTNSEHPGVSPSESEVGPTLHRLIRGAEGRVIVACFASNVDRVQQIIDAAVALGRRVSFVGRSMVRNMGIARELGYLKVDDSDILDIAAAEMMPPDRVVLITTGTQGEPMAALSRMSRGEHRSITLTSGDLIILSSSLIPGNEEAVYGVIDSLSKIGARVVTNAQARVHVSGHAYAGELLFLYNGVRPRNVMPVHGTWRHLRANAALAASTGVPPENIVLAENGVSVDLVAGRASISGAVTVGKMFVDGLITGDVGDATLGERLILSSGFVSITVVVHRGTGRPAGPAHLISRGFSEDPKALEPVAQKVERELEALAADNVTDPTRIAQAVRRTVGKWVGETYRRQPMIVPTVIEI
B10: protein 1-329 D182A (Methylobacterium extorquens, UniProt C5AP93); chain MSATLPDMDTLRERLLAGDRAALARAITLAESRRADHRAAVRDLIDAVLPQTGRAIRVGITGVPGVGKSTTIDALGSLLTAAGHKVAVLAVDPSSTRTGGSILGDKTRMARLAIDRNAFIRPSPSSGTLGGVAAKTRETMLLCEAAGFDVILVETVGVGQSETAVADLTDFFLVLMLPGAGAELQGIKKGILELADMIAVNKADDGDGERRASAAASEYRAALHILTPPSATWTPPVVTISGLHGKGLDSLWSRIEDHRSKLTATGEIAGKRREQDVKWMWALVHERLHQRLVGSAEVRQATAEAERAVAGGEHSPAAGADAIATLIGL
B11: Lef1 114-397 (Mus musculus, UniProt P27782); sequence looked up; chain MMPNMNSDPYMSNGSLSPPIPRTSNKVPVVQPSHAVHPLTPLITYSDEHFSPGSHPSHIPSDVNSKQGMSRHPPAPEIPTFYPLSPGGVGQITPPIGWQGQPVYPITGGFRQPYPSSLSGDTSMSRFSHHMIPGPPGPHTTGIPHPAIVTPQVKQEHPHTDSDLMHVKPQHEQRKEQEPKRPHIKKPLNAFMLYMKEMRANVVAECTLKESAAINQILGRRWHALSREEQAKYYELARKERQLHMQLYPGWSARDNYGKKKKRKREKLQESTSGTGPRMTAAYI
B12: ALDOA (Oryctolagus cuniculus, UniProt P00883); sequence looked up; chain MPHSHPALTPEQKKELSDIAHRIVAPGKGILAADESTGSIAKRLQSIGTENTEENRRFYRQLLLTADDRVNPCIGGVILFHETLYQKADDGRPFPQVIKSKGGVVGIKVDKGVVPLAGTNGETTTQGLDGLSERCAQYKKDGADFAKWRCVLKIGEHTPSALAIMENANVLARYASICQQNGIVPIVEPEILPDGDHDLKRCQYVTEKVLAAVYKALSDHHIYLEGTLLKPNMVTPGHACTQKYSHEEIAMATVTALRRTVPPAVTGVTFLSGGQSEEEASINLNAINKCPLLKPWALTFSYGRALQASALKAWGGKKENLKAAQEEYVKRALANSLACQGKYTPSGQAGAAASESLFISNHAY

Molecule | partner | assay | system | conditions | scale | endpoint | value
B1 (ftsY 47-497 E475K) | T1, Ffh/4.5S SRP RNA (Escherichia coli) | translocation | – | – | reference: wild-type FtsY, higher = greater reduction | relative translocation efficiency | 2 fold
sseK2 (Salmonella enterica, UniProt Q8ZNP4) | FADD 97-181 (Homo sapiens, UniProt Q13158) | glycosylation | – | estimated | reference: NleB1, higher = weaker substrate binding | Km worsening | 95 fold
hsiC1 fragment (Pseudomonas aeruginosa) | hsiB1 (Pseudomonas aeruginosa) | bacterial two-hybrid | – | 48 h, 30 °C | higher = stronger interaction | β-galactosidase activity | 4660 Miller units
B2 (fliP mature) | fliR (Salmonella enterica, UniProt P54702) | cryo-EM | – | – | – | molecule per partner | 5
ipaB (Shigella flexneri) | mxiH (Shigella flexneri, UniProt P0A223) | co-purification, Western blot | – | Class IIb ipaD mutants | reference: complemented strain, higher = more IpaB in needles | relative binding | 130%
B3 (CCNO) | CDK2 (Homo sapiens, UniProt P24941) | histone H1 phosphorylation | HEK cells, immunoprecipitates | – | reference: empty vector, higher = more activity | CDK2 kinase activity | 2.5 fold
B4 (hda) | dnaN beta clamp 1-366 del148-154 (Escherichia coli, UniProt P0A988) | SEC-MALS | – | – | – | binding | binds
pilE 29-end (Neisseria meningitidis) | BSG 138-325 (Homo sapiens, UniProt P35613) | AFM force spectroscopy | – | pH 7.0, room temperature, NaCl 150 mM | – | interaction force | 62 pN
TBK1 fragment Y577A (Homo sapiens) | STING1 (Homo sapiens, UniProt Q86WV6) | IFN-β luciferase reporter | TBK1 KO HEK293T | with: cGAMP | reference: wild-type TBK1, higher = more reduction | reduction of IFN-β reporter | > 60%
RAD23 (Saccharomyces cerevisiae, UniProt P32628) | RPN1/RPN2/20S proteasome core particle reconstituted complex (Saccharomyces cerevisiae) | atomic force microscopy | – | – | – | molecule per partner | 1
HIP-4.2 | HLA-DRA/HLA-DRB1*04:01 (Homo sapiens) | competition with biotinylated peptide, competitor, competition binding assay | – | – | – | IC50 | 0.44 µM
B5 (bfd 1-73 C43S) | bfrB 1-158 L68A (Pseudomonas aeruginosa, UniProt Q9HY79) | Fe2+-bipyridine formation | – | with: NADPH 1 mM | – | iron release rate | 0.019 min⁻¹
N-formyl-Met-Leu-Phe, N-formyl | FPR3 (Homo sapiens, UniProt P25089) | aequorin luminescence, agonist | CHO-K1 | – | – | pEC50 | < 6 pEC50
Epo-Fc Fc fusion, hinge-CH2-CH3, glycosylated (Mus musculus) | Fcgrt heavy chain (Mus musculus, UniProt Q61559) | reticulocyte count, agonist | suckling mice | apparent, intragastric, dose response | – | reticulocyte count | 0.1 µg/animal
Hcp (Agrobacterium tumefaciens) | tssL full length, His6 (Agrobacterium tumefaciens) | pull-down | membrane fraction | arsenate-treated, ATP-depleted cells, not purified | reference: TssL-His in bound fraction, higher = more Hcp bound | relative Hcp signal | 0.11
B6 (protein 1-329) | mcmA | GTP hydrolysis | – | GAP activity, with: MCM 2-fold | – | kcat | 0.07 s⁻¹
IgG Fc Fc (Homo sapiens) | MUC16 fragment | ELISA | – | – | reference: whole IgG, higher = more binding | relative binding | 60%
dnaG (Saccharolobus solfataricus, UniProt P95980) | rrp41/rrp42/csl4 exosome, Csl4 homomeric cap (Saccharolobus solfataricus) | co-IP | – | – | – | binding | binds
B7 (FBLN5 247-333) | FBN1 31-489 (Homo sapiens, UniProt P35555) | ELISA | – | – | – | binding | binds
B8 (bfd 1-73 K40A/C43S) | bfrB 1-158 (Pseudomonas aeruginosa, UniProt Q9HY79) | Fe2+-bipyridine formation | – | with: NADPH 1 mM | – | iron release rate | 0.09 min⁻¹
Dync1h1 F580Y (Mus musculus) | Dctn1 (Mus musculus, UniProt O08788) | co-IP | brain extract | 4 °C | reference: wild type, lower = less binding | DHC/p150 ratio | 1.3 fold
candidalysin (Candida albicans) | GP1BA (Homo sapiens, UniProt P07359) | flow cytometry | MEG-01 megakaryocytes, releasates | 15 µM, 1 h, 37 °C, no antibody | reference: Mk-only control, higher = more platelets | platelet counts | 14000 counts
B9 (rnj HA-tagged) | rne 330-1037 D694R/D738R (Mycolicibacterium smegmatis, UniProt A0R152) | co-IP | – | – | – | binding | binds
RHOA GTP-bound G14V (Homo sapiens) | PLCE1 PH-C 837-2281 (Rattus norvegicus, UniProt Q99P84) | PI hydrolysis, activator, IP-One assay | liposomes | with: GTP | reference: basal, higher = more activity | fold activation | 5 fold
B10 (protein 1-329 D182A) | mcmA | GTP hydrolysis | – | GAP activity, with: MCM 2-fold | – | kcat | 0.00833 s⁻¹
B11 (Lef1 114-397) | Dlx2 (Mus musculus, UniProt P40764) | Msx2-872 luciferase | CHO | – | higher = more activation | reporter activation | 62 fold
B12 (ALDOA) | TRAP C-terminal cytoplasmic tail (Plasmodium falciparum) | SPR | – | two-state model | – | kd1 | 0.052 s⁻¹

A few entries again:
Molecule | partner | assay | system | conditions | scale | endpoint | value
IgG Fc Fc (Homo sapiens) | MUC16 fragment | ELISA | – | – | reference: whole IgG, higher = more binding | relative binding | 60%
RHOA GTP-bound G14V (Homo sapiens) | PLCE1 PH-C 837-2281 (Rattus norvegicus, UniProt Q99P84) | PI hydrolysis, activator, IP-One assay | liposomes | with: GTP | reference: basal, higher = more activity | fold activation | 5 fold
